Results pooled from the literature.
Compare with care: the assays were run in different laboratories.

| Substance | target or system | assay | test system | conditions | how to read | measurement | value |
| --- | --- | --- | --- | --- | --- | --- | --- |
| GMEVTPSGTWLTYTG | human CD4 T cells | AIM | peptide |  |  | responding donors | 8% |
| Nc1ncnc2c([C@@H]3N[C@H](CO)[C@@H](O)[C@H]3O)c[nH]c12 | Marburg virus | viral replication, antibody staining | HeLa, Musoke | 6.3 µM, 1 h |  | infected cells | 2.4% |
| CC[C@H](C)[C@H](NC(=O)[C@H](CC(C)C)NC(=O)[C@H](Cc1c[nH]c2ccccc12)NC(=O)[C@H](CCC(N)=O)NC(=O)[C@@H](NC(=O)[C@H](Cc1ccccc1)NC(=O)[C@H](C)NC(=O)[C@H](CCCCNC(=O)COCCOCCNC(=O)COCCOCCNC(=O)CC[C@H](NC(=O)CCCCCCCCCCCCCCCCCCC(=O)O)C(=O)O)NC(=O)[C@H](CCC(N)=O)NC(=O)[C@H](C)NC(=O)[C@@H](NC(=O)[C@H](CCCCN)NC(=O)[C@H](CC(=O)O)NC(=O)[C@H](CC(C)C)NC(=O)C(C)(C)NC(=O)[C@@H](NC(=O)[C@H](CO)NC(=O)[C@H](Cc1ccc(O)cc1)NC(=O)[C@H](CC(=O)O)NC(=O)[C@H](CO)NC(=O)[C@@H](NC(=O)[C@H](Cc1ccccc1)NC(=O)[C@@H](NC(=O)CNC(=O)[C@H](CCC(=O)O)NC(=O)C(C)(C)NC(=O)[C@@H](N)Cc1ccc(O)cc1)[C@@H](C)O)[C@@H](C)O)[C@@H](C)CC)[C@@H](C)CC)C(C)C)C(=O)N[C@@H](C)C(=O)NCC(=O)NCC(=O)N1CCC[C@H]1C(=O)N[C@@H](CO)C(=O)N[C@@H](CO)C(=O)NCC(=O)N[C@@H](C)C(=O)N1CCC[C@H]1C(=O)N1CCC[C@H]1C(=O)N1CCC[C@H]1C(=O)N[C@@H](CO)C(N)=O |  |  | healthy subjects, single ascending dose | 0.25 mg |  | adverse events (injection site pain) | 16.7% |
| O=C(O)CCc1cc(C(=O)c2ccc(OC3CCCC3)cc2O)ccc1OCc1ccc2c(=O)[nH]oc2c1 | Replicase polyprotein 1ab, main protease (rep, Severe acute respiratory syndrome coronavirus 2, UniProt P0DTD1) | viral replication, Gluc reporter | SARS-CoV-2 | 20 µM |  | inhibition | 1.34% |
| LLLDRLNQL |  | AIM | peptide, CD8+ T cells from PBMC, human donors | HLA-A*02:01 restricted, unit not given | reference: positive over tested donors | frequency of responding donors | 20 |

Excerpt of the above:
| Substance | target or system | assay | test system | conditions | how to read | measurement | value |
| --- | --- | --- | --- | --- | --- | --- | --- |
| CC[C@H](C)[C@H](NC(=O)[C@H](CC(C)C)NC(=O)[C@H](Cc1c[nH]c2ccccc12)NC(=O)[C@H](CCC(N)=O)NC(=O)[C@@H](NC(=O)[C@H](Cc1ccccc1)NC(=O)[C@H](C)NC(=O)[C@H](CCCCNC(=O)COCCOCCNC(=O)COCCOCCNC(=O)CC[C@H](NC(=O)CCCCCCCCCCCCCCCCCCC(=O)O)C(=O)O)NC(=O)[C@H](CCC(N)=O)NC(=O)[C@H](C)NC(=O)[C@@H](NC(=O)[C@H](CCCCN)NC(=O)[C@H](CC(=O)O)NC(=O)[C@H](CC(C)C)NC(=O)C(C)(C)NC(=O)[C@@H](NC(=O)[C@H](CO)NC(=O)[C@H](Cc1ccc(O)cc1)NC(=O)[C@H](CC(=O)O)NC(=O)[C@H](CO)NC(=O)[C@@H](NC(=O)[C@H](Cc1ccccc1)NC(=O)[C@@H](NC(=O)CNC(=O)[C@H](CCC(=O)O)NC(=O)C(C)(C)NC(=O)[C@@H](N)Cc1ccc(O)cc1)[C@@H](C)O)[C@@H](C)O)[C@@H](C)CC)[C@@H](C)CC)C(C)C)C(=O)N[C@@H](C)C(=O)NCC(=O)NCC(=O)N1CCC[C@H]1C(=O)N[C@@H](CO)C(=O)N[C@@H](CO)C(=O)NCC(=O)N[C@@H](C)C(=O)N1CCC[C@H]1C(=O)N1CCC[C@H]1C(=O)N1CCC[C@H]1C(=O)N[C@@H](CO)C(N)=O |  |  | healthy subjects, single ascending dose | 0.25 mg |  | adverse events (injection site pain) | 16.7% |
